Experimental data from different studies.
Compare with care: the assays were run in different laboratories. “And” joins repeats or separate records; there may be more than shown.
Target: Serine/threonine-protein kinase PLK3 (PLK3, Homo sapiens, UniProt Q9H4B4)
Sequence of UniProt Q9H4B4 (whole entry, unmodified, looked up): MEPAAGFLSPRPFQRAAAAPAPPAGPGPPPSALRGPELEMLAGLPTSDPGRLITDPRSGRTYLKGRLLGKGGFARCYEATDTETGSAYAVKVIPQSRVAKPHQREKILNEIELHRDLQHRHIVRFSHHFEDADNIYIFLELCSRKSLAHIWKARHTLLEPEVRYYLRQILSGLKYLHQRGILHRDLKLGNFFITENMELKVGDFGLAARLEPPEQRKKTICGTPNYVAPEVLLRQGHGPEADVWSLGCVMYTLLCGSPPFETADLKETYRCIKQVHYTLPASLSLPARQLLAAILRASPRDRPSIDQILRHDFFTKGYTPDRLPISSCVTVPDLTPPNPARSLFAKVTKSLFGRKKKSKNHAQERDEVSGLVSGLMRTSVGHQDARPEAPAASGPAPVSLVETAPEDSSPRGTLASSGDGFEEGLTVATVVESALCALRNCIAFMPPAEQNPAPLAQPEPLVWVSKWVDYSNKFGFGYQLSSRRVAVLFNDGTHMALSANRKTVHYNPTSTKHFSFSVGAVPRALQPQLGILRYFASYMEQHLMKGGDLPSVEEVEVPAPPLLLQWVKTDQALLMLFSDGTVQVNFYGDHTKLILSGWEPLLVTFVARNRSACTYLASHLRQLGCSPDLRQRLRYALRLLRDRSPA

| Compound | assay | setting | how to read | quantity | result |
| --- | --- | --- | --- | --- | --- |
| CC(=O)N1c2ccc(-c3ccc(CNC(=O)c4cn5cc(-c6cnc(N)nc6)nc(N6CCOCC6)c5n4)cc3)cc2CC[C@@H]1C | KINOMEscan | 10 µM | – | remaining binding | 98% |
| CCn1cc(C(=O)O)c(=O)c2c(N)c(F)c(NC3CCCCC3)cc21 | kinase activity | 0.1 µM, with: ATP at Km | – | inhibition | -13.3% |
| COCC12C(=O)NC3C4(C(OC)CC1O)C1CC5(O)C(OC)C(O)C(OC(C)=O)(C1C5OC(=O)c1ccccc1)C3(O)C(OC)C24 (centres unmarked) | kinase activity, inhibitor, ProQinase kinase profiling | 25 µM | baseline: control | remaining activity | 101% and 105% |
| COc1ccc(NC(=O)Nc2ccc3c(c2)C(=O)N(C(C)CO)CC(C)C(CN(C)Cc2ccc4c(c2)OCO4)O3)cc1 (centres unmarked) | kinase activity, KinaseProfiler | 0.03 µM, species human | baseline: control | remaining activity | 107% |
| Cc1cccc(O[C@H]2CCC[C@@H](C(C)CNCc3ccncc3)C2)c1 (relative stereo) | enzyme activity, inhibitor | 1 µM | – | inhibition | -8% |
| Cc1cnc2nc1Nc1cccc(c1)COC/C=C/COCc1cc(ccc1OCCN1CCOCC1)N2 | binding | 0.1 µM | – | remaining binding | 91% |
| C=CC(=O)Nc1cccc(-c2cnc3[nH]cc(C(=O)NC(C)(C)C)c3n2)c1 | enzyme activity, inhibitor | 0.1 µM | – | inhibition | 14% |
| COc1c(OCCCN2CCOCC2)ccc2c1N=C(NC(=O)c1cnc(N)nc1)N1CCN=C21 | kinase activity, inhibitor | 1 µM | baseline: untreated control | remaining activity | 91% |
| COc1cc(Nc2nc(C)cc(-c3cnn4nc(OC)ccc34)n2)cc(C(F)(F)F)c1 | inhibitor | 1 µM | baseline: control | remaining activity | 72% |
| CNS(=O)(=O)Nc1nccc(Cc2c(C)c3ccc(Oc4ncccc4F)cc3oc2=O)c1F | binding, competition with immobilised ligand | 10 µM | – | remaining binding | 97% |
| CN1CCN(Cc2ccc(NC(=O)c3cccc(C#Cc4cnc(N)c5ncccc45)c3)cc2C(F)(F)F)CC1 | cell-free assay, competition with immobilised ligand | 0.5 µM | – | remaining binding | 69% |
| CNC1C[S+]2CC[S+]3CC[S+](C1)[Ru-4]321([N]=C=S)[n]2c3ccc(OC)cc3c3c4c(c5cc(F)c[n+]1c5c32)C(=O)NC4=O (centres unmarked) | KinomeScan | 0.1 µM | baseline: untreated | remaining binding | 58% |
| O=C(O)CCC(=O)c1cccc(NS(=O)(=O)c2c[nH]c3ncccc23)c1 | kinase activity, radiometric | 10 µM | – | remaining activity | 104% |
| CN1C[C@@H](c2c[nH]c3cc(Br)ccc23)NC[C@@H]1c1c[nH]c2cc(Br)ccc12 | enzyme activity, inhibitor | 10 µM | – | remaining activity | 157% |
| O=C(Cc1ccc(OCc2ccccc2)cc1)NC1(C(=O)O)CCN(C(=O)c2ccc(-c3cccc(Cl)c3)cc2)CC1 | enzyme activity, inhibitor | 10 µM | – | activity vs control | 99% |
| CNC(=O)C1CCN(c2cc(C)c(F)cc2NC(=O)c2ccc(-c3cc(O)ccc3C)c(C)c2)CC1 | binding, competition with immobilised ligand | 1 µM | – | remaining binding | 85% |
| CN1CCN(Cc2ccc(-c3ccc(CO[C@H]4CCC[C@@H]4NC(=O)c4cc(-c5cnn(C)c5)cnc4N)cc3)cc2)CC1 | enzyme activity, inhibitor | 0.1 µM | – | inhibition | -2% |
| NC(=O)[C@@H](O)C[C@H]1CCc2sc3ncnc(O[C@H]4CC[C@H](N5CCOCC5)CC4)c3c21 | enzyme activity, inhibitor | 10 µM | – | inhibition | 3% |
| C=CC(=O)N1CCCC(n2c(=O)c3ncccc3n(Cc3ccc(Oc4ccccc4)cc3)c2=O)C1 (centres unmarked) | cell-free assay, competition with immobilised ligand | 1 µM | – | remaining binding | 61% |
| Nc1ncc2c(n1)-c1c([nH]c3ccc(C4=CCOCC4)cc13)CCC2 | binding, competition with immobilised ligand | 1 µM | – | remaining binding | 96% |
